{"data": "Earlier results that unrelated publications cite", "B1": "CX3CL1, human; sequence looked up; chain QHHGVTKCNITCSKMTSKIPVALLIHYQQNQASCGKRAIILETRQHRLFCADPKEQWVKDAMQHLDRQAAALTRNGGTFEKQIGEVKPRTTPAAGGMDESVVLEPEATGESSSLEPTPSSQEAQRALGTSPELPTGVTGSSGTRLPPTPKAQDGGPVGTELFRVPPVSTAATWQSSAPHQPGPSLWAEAKTSEAPSTQDPSTQASTASSPAPEENAPSEGQRVWGQGQSPRPENSLEREEMGPVPAHTDAFQDWGPGSMAHVSVVPVSSEGTPSREPVASGSWTPKAEEPIHATMDPQRLGVLITPVPDAQAATRRQAVGLLAFLGLLFCLGVAMFTYQSLQGCPRKMAGEMAEGLRYIPRSCGSNSYVLVPV", "note": "Lines come from different studies, so protocols differ.", "chain of UniProt Q63273 (whole entry, looked up)": "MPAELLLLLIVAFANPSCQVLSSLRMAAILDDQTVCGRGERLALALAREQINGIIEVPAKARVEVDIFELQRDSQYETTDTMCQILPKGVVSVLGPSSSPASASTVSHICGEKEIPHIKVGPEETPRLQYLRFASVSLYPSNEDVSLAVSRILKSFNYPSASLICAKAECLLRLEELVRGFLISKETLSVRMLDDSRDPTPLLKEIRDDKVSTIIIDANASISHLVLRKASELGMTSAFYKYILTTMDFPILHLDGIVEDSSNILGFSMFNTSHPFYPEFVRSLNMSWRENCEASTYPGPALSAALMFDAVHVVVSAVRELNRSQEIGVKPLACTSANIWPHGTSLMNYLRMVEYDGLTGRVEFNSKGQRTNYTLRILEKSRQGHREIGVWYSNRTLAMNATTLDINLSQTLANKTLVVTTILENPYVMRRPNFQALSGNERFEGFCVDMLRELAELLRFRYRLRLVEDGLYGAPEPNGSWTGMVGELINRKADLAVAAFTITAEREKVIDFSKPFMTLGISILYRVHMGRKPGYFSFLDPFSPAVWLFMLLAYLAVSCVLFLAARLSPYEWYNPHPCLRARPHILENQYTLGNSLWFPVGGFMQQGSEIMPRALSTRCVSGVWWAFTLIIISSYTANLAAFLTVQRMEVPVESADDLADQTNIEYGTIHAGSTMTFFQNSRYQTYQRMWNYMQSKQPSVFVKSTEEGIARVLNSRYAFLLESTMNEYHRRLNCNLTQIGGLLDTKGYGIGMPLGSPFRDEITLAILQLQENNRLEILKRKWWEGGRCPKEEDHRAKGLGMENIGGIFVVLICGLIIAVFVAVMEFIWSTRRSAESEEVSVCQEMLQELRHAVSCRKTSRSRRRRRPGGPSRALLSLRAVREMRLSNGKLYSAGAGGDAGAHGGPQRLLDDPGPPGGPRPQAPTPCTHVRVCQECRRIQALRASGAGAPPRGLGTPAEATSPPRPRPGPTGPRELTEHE"}
{"Substance": "COP(=O)(OC)SCn1c(=O)oc2cc(Cl)cnc21", "target or system": "acetylcholinesterase", "test": "enzyme activity, inhibitor", "system": "thymus tissue", "conditions": "20 min", "endpoint": "IC30", "value": "0.12 µM"}
{"Substance": "O=C(NN1C(=O)C2C3C=CC(C4CC34)C2C1=O)c1ccc(C(F)(F)F)cc1 (stereo not shown)", "target or system": "Monkeypox virus", "test": "viral replication", "system": "clade I and IIa isolates", "endpoint": "EC50", "value": "0.023 to 0.039 µM"}
{"Substance": "N[C@@H](C[C@]1(C(=O)O)C[C@H]2OC[C@@H](O)[C@@H](O)[C@H]2O1)C(=O)O", "target or system": "Glutamate receptor ionotropic, kainate 5 (Grik5, Rattus norvegicus, UniProt Q63273)", "test": "radioligand binding", "endpoint": "Ki", "value": "0.68 µM"}
{"Substance": "B1 (CX3CL1, human)", "target or system": "US28 Y16F", "test": "binding, radioligand competition", "endpoint": "Kd", "value": "0.0012 µM"}
{"note": "Repeated from above:"}
{"Substance": "COP(=O)(OC)SCn1c(=O)oc2cc(Cl)cnc21", "target or system": "acetylcholinesterase", "test": "enzyme activity, inhibitor", "system": "thymus tissue", "conditions": "20 min", "endpoint": "IC30", "value": "0.12 µM"}
